Measured values from different studies.
Compare with care: the assays were run in different laboratories. Bridges are numbered along the chain shown (N, C = ends). Where no end group is shown, it is not given here.
Organism: Staphylococcus aureus

Substance | assay | test system | conditions | MIC
CC[C@H](C)[C@H](NC(=O)[C@H](CC(C)C)NC(=O)CNC(=O)[C@H](CO)NC(=O)[C@@H](NC(=O)[C@H](CC(C)C)NC(=O)[C@@H](N)CC(N)=O)C(C)C)C(=O)N[C@@H](CCC(=O)O)C(=O)N[C@@H](C)C(=O)N[C@@H](CCCNC(=N)N)C(=O)N[C@@H](CCCCN)C(=O)N[C@@H](Cc1ccc(O)cc1)C(=O)N[C@@H](CC(C)C)C(=O)N[C@@H](CCC(=O)O)C(=O)N[C@@H](CCC(N)=O)C(=O)N[C@@H](CC(C)C)C(=O)N[C@@H](Cc1c[nH]cn1)C(=O)N[C@@H](CCCNC(=N)N)C(=O)N[C@@H](CCCCN)C(=O)N[C@@H](CC(C)C)C(=O)N[C@@H](CCCCN)C(=O)N[C@@H](CC(N)=O)C(=O)N[C@@H](CCCNC(=N)N)C(=O)N[C@@H](CCCCN)C(=O)N[C@H](C(=O)O)C(C)C | broth microdilution | USA300 LAC | 37 °C | > 92 µM
CC(=O)C1=C(O)C(CC(C)C)NC1=O (stereo not shown) | microbial growth, broth dilution | MSSA NEWMAN |  | > 200 µg/mL
O=[N+]([O-])c1ccc(Oc2cccc3cccnc23)c([N+](=O)[O-])c1 | microbial growth | ATCC25923 |  | 125 µg/mL
CC[C@H](C)[C@H](NC(=O)[C@H](CC(=O)O)NC(=O)[C@H](Cc1ccccc1)NC(=O)[C@H](CC(C)C)NC(=O)CN)C(=O)N[C@H](C(=O)N[C@@H](CCCCN)C(=O)N[C@@H](CCCCN)C(=O)N[C@H](C(=O)N[C@H](C(=O)NCC(=O)N[C@@H](C)C(=O)N[C@@H](CC(C)C)C(=O)NCC(N)=O)C(C)C)C(C)C)C(C)C |  | SH1000 GFP-expressing, nutrient broth | 20 h, 37 °C | 50 µM
CC[C@H](C)[C@H](NC(=O)CN)C(=O)N[C@@H](Cc1c[nH]c2ccccc12)C(=O)N[C@@H](CC(=O)O)C(=O)N[C@H](C(=O)N[C@H](C(=O)N[C@@H](CCCCN)C(=O)N[C@@H](CO)C(=O)N[C@@H](CCSC)C(=O)NCC(=O)N[C@@H](CCCCN)C(=O)N[C@H](C(=O)N[C@@H](Cc1ccccc1)C(=O)N[C@@H](C)C(=O)NCC(=O)N[C@@H](CCCCN)C(=O)N[C@H](C(=O)N[C@@H](CC(C)C)C(=O)N[C@@H](CCC(N)=O)C(=O)N[C@@H](CC(N)=O)C(=O)N[C@@H](CC(C)C)C(N)=O)[C@@H](C)CC)C(C)C)[C@@H](C)CC)[C@@H](C)O | broth microdilution | USA300 LAC | 37 °C | 25 µM
CCCCCCCCCCCCCCc1cc(O)cc(O)c1 | microbial growth, broth dilution | USA300 | drug-resistant strain | > 64 µg/mL
CC(C)C[C@H](NC(=O)[C@H](C)NC(=O)CNC(=O)[C@H](CC(C)C)NC(=O)[C@H](CC(C)C)NC(=O)[C@H](CCCCN)NC(=O)[C@H](CCCCN)NC(=O)[C@H](CC(C)C)NC(=O)[C@H](CC(C)C)NC(=O)[C@H](CCCCN)NC(=O)[C@H](CC(C)C)NC(=O)[C@H](CC(C)C)NC(=O)[C@@H](N)CCCCN)C(=O)NCC(N)=O |  | ATCC 43300, CAMHB | 18 h, 37 °C | 3 µM
CC[C@H](C)[C@H](NC(=O)[C@H](Cc1c[nH]cn1)NC(=O)[C@H](CCCCN)NC(=O)[C@@H](NC(=O)[C@@H](NC(=O)[C@H](CC(=O)O)NC(=O)[C@H](Cc1ccccc1)NC(=O)[C@H](Cc1c[nH]c2ccccc12)NC(=O)CN)C(C)C)C(C)C)C(=O)N[C@@H](C)C(=O)N[C@@H](CCCCN)C(=O)N[C@@H](CCCNC(=N)N)C(=O)N[C@@H](Cc1ccccc1)C(N)=O | broth microdilution | USA300 LAC | 37 °C | 50 µM
N=C(N)NCCC[C@H](NC(=O)[C@H](Cc1c[nH]cn1)NC(=O)[C@@H]1CCCN1C(=O)[C@H](CS)NC(=O)CN)C(=O)N[C@@H](CS)C(=O)O | broth microdilution | MTCC 96 | 37 °C | 200 µg/mL
CC[C@H](C)[C@H](NC(=O)CNC(=O)[C@H](CCCNC(=N)N)NC(=O)[C@H](Cc1ccccc1)NC(=O)[C@@H](NC(=O)[C@H](Cc1c[nH]cn1)NC(=O)[C@H](Cc1c[nH]cn1)NC(=O)[C@H](Cc1ccccc1)NC(=O)[C@@H](N)Cc1ccccc1)[C@@H](C)CC)C(=O)N[C@H](C(=O)N[C@@H](Cc1c[nH]cn1)C(=O)N[C@H](C(=O)NCC(=O)N[C@@H](CCCCN)C(=O)N[C@H](C(=O)N[C@@H](C)C(=O)N[C@@H](Cc1c[nH]cn1)C(=O)N[C@@H](CCCNC(=N)N)C(=O)N[C@@H](CC(C)C)C(=O)N[C@H](C(=O)N[C@H](C(=O)NCC(N)=O)[C@@H](C)O)C(C)C)[C@@H](C)O)C(C)C)C(C)C | broth microdilution | MRSA clinical isolate, brain heart infusion | 18 h, 37 °C | 3.1 µg/mL
CC[C@H](C)[C@H](NC(=O)[C@H](CC(=O)O)NC(=O)[C@H](Cc1ccccc1)NC(=O)[C@H](CC(C)C)NC(=O)CN)C(=O)N[C@H](C(=O)N[C@@H](CCCCN)C(=O)N[C@@H](CCCCN)C(=O)N[C@H](C(=O)N[C@H](C(=O)NCC(=O)N[C@@H](CC(C)C)C(=O)N[C@@H](CC(C)C)C(=O)N[C@@H](CCCCN)C(N)=O)C(C)C)C(C)C)C(C)C |  | SH1000 GFP-expressing, nutrient broth | 20 h, 37 °C | 50 µM
FFPKVAGVAAKVLKKFCTISKKC (disulfide 17-23 (inferred)) (disulfide) |  | MRSA 12493 | 18 h, 37 °C | > 128 µM
CC[C@H](C)[C@H](NC(=O)[C@H](C)NC(=O)[C@@H](NC(=O)[C@H](C)NC(=O)CN)[C@@H](C)O)C(=O)N[C@@H](CCCCN)C(=O)N[C@@H](CCC(N)=O)C(=O)N[C@H](C(=O)N[C@@H](CCCCN)C(=O)N[C@@H](CCCCN)C(=O)N[C@@H](CC(C)C)C(=O)N[C@@H](Cc1ccccc1)C(=O)N[C@@H](CCCCN)C(=O)N[C@@H](CCCCN)C(=O)N[C@@H](CCCCN)C(=O)NCC(=O)NCC(N)=O)C(C)C | broth microdilution | ATCC 25923 | 24 h, 37 °C | 310 µM

Repeated from above:
Substance | assay | test system | conditions | MIC
N=C(N)NCCC[C@H](NC(=O)[C@H](Cc1c[nH]cn1)NC(=O)[C@@H]1CCCN1C(=O)[C@H](CS)NC(=O)CN)C(=O)N[C@@H](CS)C(=O)O | broth microdilution | MTCC 96 | 37 °C | 200 µg/mL
